Measurements pooled from the literature.
Numbered parts are unrelated; each lists some results of a single study. “And” joins repeats or separate records; there may be more than shown.
Sequence of UniProt Q9UHD2 (whole entry, looked up): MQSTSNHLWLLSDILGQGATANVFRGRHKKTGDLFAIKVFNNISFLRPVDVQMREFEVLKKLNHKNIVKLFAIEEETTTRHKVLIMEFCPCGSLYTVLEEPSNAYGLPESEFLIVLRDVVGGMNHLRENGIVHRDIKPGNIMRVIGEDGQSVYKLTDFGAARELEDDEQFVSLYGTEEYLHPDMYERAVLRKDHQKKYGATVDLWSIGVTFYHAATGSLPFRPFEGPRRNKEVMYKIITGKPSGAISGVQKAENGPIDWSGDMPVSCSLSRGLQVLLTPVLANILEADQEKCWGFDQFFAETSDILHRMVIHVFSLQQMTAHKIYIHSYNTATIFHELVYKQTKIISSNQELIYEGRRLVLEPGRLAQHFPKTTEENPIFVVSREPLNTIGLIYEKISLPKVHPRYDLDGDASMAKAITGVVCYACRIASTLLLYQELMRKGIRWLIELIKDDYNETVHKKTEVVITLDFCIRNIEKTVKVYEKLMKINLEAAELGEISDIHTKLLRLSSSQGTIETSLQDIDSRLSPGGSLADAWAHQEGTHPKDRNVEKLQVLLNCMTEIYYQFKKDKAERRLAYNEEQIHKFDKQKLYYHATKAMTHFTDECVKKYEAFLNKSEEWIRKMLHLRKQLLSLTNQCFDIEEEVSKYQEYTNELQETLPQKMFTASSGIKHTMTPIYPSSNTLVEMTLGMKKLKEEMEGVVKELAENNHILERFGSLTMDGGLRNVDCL
Sequence of UniProt Q04912 (whole entry, looked up): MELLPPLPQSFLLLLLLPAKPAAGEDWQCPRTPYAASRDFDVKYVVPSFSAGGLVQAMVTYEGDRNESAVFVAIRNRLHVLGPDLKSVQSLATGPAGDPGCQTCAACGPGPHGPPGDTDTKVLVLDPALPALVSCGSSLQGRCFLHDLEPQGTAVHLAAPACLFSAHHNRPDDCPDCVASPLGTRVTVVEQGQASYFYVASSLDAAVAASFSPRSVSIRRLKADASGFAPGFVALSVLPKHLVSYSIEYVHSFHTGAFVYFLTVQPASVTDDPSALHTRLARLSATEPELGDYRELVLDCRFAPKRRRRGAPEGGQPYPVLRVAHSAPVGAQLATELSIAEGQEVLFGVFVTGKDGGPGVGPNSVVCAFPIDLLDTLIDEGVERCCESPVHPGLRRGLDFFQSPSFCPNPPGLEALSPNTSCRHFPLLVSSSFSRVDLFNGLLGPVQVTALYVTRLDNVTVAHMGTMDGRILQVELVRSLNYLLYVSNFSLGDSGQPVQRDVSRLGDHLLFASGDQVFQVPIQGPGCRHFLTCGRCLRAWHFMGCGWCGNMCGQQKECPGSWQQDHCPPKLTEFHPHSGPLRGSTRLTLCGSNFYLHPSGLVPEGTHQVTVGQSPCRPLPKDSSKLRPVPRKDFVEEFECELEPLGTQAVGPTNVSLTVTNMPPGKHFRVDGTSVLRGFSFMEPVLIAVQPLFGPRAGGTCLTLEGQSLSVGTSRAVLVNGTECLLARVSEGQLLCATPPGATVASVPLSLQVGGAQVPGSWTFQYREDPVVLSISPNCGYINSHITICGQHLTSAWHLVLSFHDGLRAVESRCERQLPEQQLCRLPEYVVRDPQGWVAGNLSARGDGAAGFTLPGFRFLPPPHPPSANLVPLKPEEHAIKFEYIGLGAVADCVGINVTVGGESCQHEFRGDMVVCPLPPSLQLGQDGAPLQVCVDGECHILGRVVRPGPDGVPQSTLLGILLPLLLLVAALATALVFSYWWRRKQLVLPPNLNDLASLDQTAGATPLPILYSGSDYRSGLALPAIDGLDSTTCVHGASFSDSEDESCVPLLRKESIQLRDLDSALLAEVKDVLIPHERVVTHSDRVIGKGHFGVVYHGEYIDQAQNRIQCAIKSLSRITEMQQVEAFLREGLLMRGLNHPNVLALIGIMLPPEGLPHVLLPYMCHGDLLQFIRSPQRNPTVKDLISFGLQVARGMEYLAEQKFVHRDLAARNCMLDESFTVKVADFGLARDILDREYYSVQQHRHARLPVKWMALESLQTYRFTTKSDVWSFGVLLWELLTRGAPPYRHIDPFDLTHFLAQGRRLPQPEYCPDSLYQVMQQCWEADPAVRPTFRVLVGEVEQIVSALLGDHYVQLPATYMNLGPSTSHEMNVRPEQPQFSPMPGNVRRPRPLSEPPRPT
Sequence of UniProt P78368 (whole entry, looked up): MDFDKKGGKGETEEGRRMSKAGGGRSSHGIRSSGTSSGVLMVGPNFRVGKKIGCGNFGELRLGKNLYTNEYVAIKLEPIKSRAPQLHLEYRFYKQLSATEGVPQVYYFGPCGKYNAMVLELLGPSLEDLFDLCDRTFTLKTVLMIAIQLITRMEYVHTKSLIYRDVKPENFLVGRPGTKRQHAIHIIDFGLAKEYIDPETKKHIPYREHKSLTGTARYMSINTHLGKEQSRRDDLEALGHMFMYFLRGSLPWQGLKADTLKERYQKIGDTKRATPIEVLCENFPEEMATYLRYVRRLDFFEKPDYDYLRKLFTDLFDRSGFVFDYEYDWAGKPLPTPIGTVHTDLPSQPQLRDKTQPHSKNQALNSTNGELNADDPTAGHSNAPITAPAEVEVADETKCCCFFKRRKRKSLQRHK
Sequence of UniProt P30291 (whole entry, looked up): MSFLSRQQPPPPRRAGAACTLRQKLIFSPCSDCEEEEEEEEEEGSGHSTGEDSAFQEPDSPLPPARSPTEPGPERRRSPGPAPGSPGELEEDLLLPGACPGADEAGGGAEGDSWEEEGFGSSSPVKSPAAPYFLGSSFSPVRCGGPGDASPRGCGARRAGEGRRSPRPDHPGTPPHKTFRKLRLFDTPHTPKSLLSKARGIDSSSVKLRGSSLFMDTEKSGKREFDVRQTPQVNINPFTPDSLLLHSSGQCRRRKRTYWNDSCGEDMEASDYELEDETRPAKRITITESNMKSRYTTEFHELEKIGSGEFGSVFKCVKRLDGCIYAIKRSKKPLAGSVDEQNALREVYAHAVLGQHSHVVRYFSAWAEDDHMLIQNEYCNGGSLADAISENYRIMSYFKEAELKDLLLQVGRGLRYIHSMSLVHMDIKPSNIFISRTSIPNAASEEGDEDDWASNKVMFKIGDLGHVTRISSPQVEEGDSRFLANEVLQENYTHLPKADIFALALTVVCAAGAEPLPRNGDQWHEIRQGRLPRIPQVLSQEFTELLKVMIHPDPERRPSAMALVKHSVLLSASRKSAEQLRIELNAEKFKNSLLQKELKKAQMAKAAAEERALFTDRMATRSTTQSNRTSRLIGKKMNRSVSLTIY
Sequence of UniProt Q9UL54 (whole entry, looked up): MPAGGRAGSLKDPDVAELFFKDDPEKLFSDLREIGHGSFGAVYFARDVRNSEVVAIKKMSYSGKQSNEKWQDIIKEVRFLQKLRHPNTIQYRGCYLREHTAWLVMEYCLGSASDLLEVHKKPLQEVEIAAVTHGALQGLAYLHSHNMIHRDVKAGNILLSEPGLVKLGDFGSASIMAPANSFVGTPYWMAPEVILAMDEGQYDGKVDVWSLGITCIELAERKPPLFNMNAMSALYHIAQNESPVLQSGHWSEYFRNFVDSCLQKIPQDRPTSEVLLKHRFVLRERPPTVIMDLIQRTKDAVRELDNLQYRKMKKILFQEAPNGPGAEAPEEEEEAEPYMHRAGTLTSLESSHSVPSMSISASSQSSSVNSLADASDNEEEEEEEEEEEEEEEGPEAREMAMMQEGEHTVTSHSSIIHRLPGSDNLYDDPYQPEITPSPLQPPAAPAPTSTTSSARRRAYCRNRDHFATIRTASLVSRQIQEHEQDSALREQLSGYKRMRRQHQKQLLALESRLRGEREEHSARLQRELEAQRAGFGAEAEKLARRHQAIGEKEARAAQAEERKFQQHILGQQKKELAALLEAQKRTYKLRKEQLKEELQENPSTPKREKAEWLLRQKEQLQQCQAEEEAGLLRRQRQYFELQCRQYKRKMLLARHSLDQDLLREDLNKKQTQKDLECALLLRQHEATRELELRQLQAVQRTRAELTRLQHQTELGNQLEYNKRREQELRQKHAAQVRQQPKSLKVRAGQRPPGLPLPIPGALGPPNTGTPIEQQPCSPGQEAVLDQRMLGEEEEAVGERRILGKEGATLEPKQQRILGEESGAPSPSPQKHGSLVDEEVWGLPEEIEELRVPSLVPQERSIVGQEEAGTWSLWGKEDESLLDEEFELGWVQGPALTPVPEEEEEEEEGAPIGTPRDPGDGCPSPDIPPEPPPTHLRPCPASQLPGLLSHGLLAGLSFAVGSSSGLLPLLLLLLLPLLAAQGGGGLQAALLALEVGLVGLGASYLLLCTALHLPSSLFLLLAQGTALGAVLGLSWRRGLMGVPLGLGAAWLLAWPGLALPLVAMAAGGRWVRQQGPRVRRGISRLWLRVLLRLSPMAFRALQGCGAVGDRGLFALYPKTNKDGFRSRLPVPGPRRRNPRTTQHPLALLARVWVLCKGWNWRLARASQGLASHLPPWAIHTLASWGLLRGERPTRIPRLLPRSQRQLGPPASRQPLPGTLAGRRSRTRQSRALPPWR
Sequence of UniProt P49137 (whole entry, looked up): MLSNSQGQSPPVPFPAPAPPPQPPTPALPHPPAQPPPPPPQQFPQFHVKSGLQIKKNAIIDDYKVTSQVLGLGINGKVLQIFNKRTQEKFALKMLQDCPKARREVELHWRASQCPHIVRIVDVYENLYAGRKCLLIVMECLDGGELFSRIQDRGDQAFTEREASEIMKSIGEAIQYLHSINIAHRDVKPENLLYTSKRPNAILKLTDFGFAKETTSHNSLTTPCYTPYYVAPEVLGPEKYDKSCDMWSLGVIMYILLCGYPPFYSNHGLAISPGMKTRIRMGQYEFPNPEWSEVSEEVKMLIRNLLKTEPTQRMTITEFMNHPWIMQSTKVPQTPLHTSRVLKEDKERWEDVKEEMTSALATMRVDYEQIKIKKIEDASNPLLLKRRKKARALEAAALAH

Sample 1 — cell line: sample B colorectal tumour organoid; concentration: 1 µM; baseline: DMSO
With `CN1CCN(Cc2cc(NC(=O)c3ccc4c(c3)CN(c3ccccc3)CC4)cc(C(F)(F)F)c2)CC1` the viability was 95.6% and 86.7%.
`CCNC(=O)c1cc2c(N3CCOC[C@H]3C)ccnc2n1C` gave a viability of 129% and 100%.
For `Cn1cc(-c2ccc3occ(-c4ccccc4-c4ccccc4)c3n2)cn1`, the viability was 120%.
With `COc1ccc2c(O[C@@H]3C[C@H]4C(=O)N[C@]5(C(=O)O)CC5/C=C\CCCCC[C@H](NC(=O)OC5CCCC5)C(=O)N4C3)cc(-c3csc(NC(=O)C(C)C)n3)nc2c1C` (stereo partly drawn) the viability was 104%.

Sample 2 — observed: enzyme activity; action: inhibitor; concentration: 0.5 µM; baseline: control
Compound: O=C1Cc2c([nH]c3ccc([N+](=O)[O-])cc23)-c2ccccc2N1
It gave 91.7% for remaining activity (Casein kinase I isoform gamma-2 (CSNK1G2, Homo sapiens, UniProt P78368)).
Fibroblast growth factor receptor 3 (FGFR3, Homo sapiens, UniProt P22607) — remaining activity: 90.5%.
It gave 81.2% for remaining activity (Tyrosine-protein kinase Lck (LCK, Homo sapiens, UniProt P06239)).
The remaining activity was 96.2% (Serine/threonine-protein kinase A-Raf (ARAF, Homo sapiens, UniProt P10398)).
It gave 109% for remaining activity (Activin receptor type-1B (ACVR1B, Homo sapiens, UniProt P36896)).
The remaining activity was 103% (Macrophage-stimulating protein receptor (MST1R, Homo sapiens, UniProt Q04912)).
The remaining activity was 98.2% (Wee1-like protein kinase (WEE1, Homo sapiens, UniProt P30291)).
It gave 88.9% for remaining activity (Serine/threonine-protein kinase TAO2 (TAOK2, Homo sapiens, UniProt Q9UL54)).
It gave 88.6% for remaining activity (Fibroblast growth factor receptor 1 (FGFR1, Homo sapiens, UniProt P11362)).
For MAP kinase-activated protein kinase 2 (MAPKAPK2, Homo sapiens, UniProt P49137): remaining activity read 77.4%.
For Rhodopsin kinase GRK7 (GRK7, Homo sapiens, UniProt Q8WTQ7): remaining activity read 99%.
It gave 62% for remaining activity (Ribosomal protein S6 kinase alpha-2 (RPS6KA2, Homo sapiens, UniProt Q15349)).
For Serine/threonine-protein kinase TBK1 (TBK1, Homo sapiens, UniProt Q9UHD2): remaining activity read 82.4%.

Sample 3 — target: UBE2B UBC core domain (UniProt P63146); technique: yeast two-hybrid; medium: yeast; notes: mostly zero background; baseline: not given; reading: higher = stronger interaction
Sequence of UniProt P63146 (whole entry, looked up): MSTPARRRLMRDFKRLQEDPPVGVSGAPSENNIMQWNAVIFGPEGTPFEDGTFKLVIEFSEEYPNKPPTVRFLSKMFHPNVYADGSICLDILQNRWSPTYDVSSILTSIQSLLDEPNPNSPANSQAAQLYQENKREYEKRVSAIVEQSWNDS
B1: ZNF598 RING domain (UniProt Q86UK7); chain AAAPERGGGSCVLCCGDLEATALGRCDHPVCYRCSTKMRVLCEQRYCAVCREELRQVVFGK
B2: RNF25 RING domain (UniProt Q96BH1); chain LTDNNIPHGQCVICLYGFQEKEAFTKTPCYHYFHCHCLARYIQHMEQELKAQGQEQEQERQHATTKQKAVGVQCPVCREPLVYDLASL
B3: RNF170 RING domain (UniProt Q96K19); chain TRQQFYTDMYCPICLHQASFPVETNCGHLFCGACIIAYWRYGSWLGAISCPICRQTVTLLLTVF
`FASPPDSNFVCSVCHGVLKRPARLPCSHIFCKKCILRWLARQKTCPCCRKEVKRKKVVH (RNF151 RING domain (UniProt Q2KHN1))` — result for “lacZ reporter activity”: 0.
`B1 (ZNF598 RING domain)` — result for “lacZ reporter activity”: 0.
Under “lacZ reporter activity”, `VTLSLTLPITCHICLGKVRQPVICINNHVFCSICIDLWLKNNSQCPACRVPITPENPCK (OBI1 RING domain (UniProt Q5W0B1))` is recorded as 0.
`B2 (RNF25 RING domain)` — result for “lacZ reporter activity”: 0.
`YWAMDSTFELCKICAESNKDVKIEPCGHLLCSCCLAAWQHSDSQTCPFCRCEIKGWEAVS (CBLC RING domain (UniProt Q9ULV8))` — result for “lacZ reporter activity”: 0.
`DAIPSLSECQCGICMEILVEPVTLPCNHTLCKPCFQSTVEKASLCCPFCRRRVSSWTRYH (RNF168 RING domain (UniProt Q8IYW5))`: “lacZ reporter activity” 0.
For `QHHELTSLFECPVCFDYVLPPILQCQAGHLVCNQCRQKLSCCPTCRGALTPSIRNL (SIAH2 RING domain (UniProt O43255))`, “lacZ reporter activity” read 0.
`B3 (RNF170 RING domain)` — result for “lacZ reporter activity”: 0.

Sample 4 — technique: protein-binding microarray; form: hairpin DNA; medium: in vitro; concentration: not given; baseline: not given; reading: higher = stronger binding
Target: Cellular tumor antigen p53, full length (TP53, Homo sapiens, UniProt P04637, residues 1-393)
Notes: whole hairpin DNA, median over replicate spots
With `CGGACATGCCCGGGCGTGTCTCCTGACACGCCCGGGCATGTCCGACACTC (5mC at 15)` the median fluorescence was 12600 a.u.
`CCACACGTCGTGGCATGCCTTCCTAGGCATGCCACGACGTGTGGACACTC` has a median fluorescence of 7520 a.u.
`CGGACAGGCCCGGGCATGTCTCCTGACATGCCCGGGCCTGTCCGACACTC (5mC at 38)` has a median fluorescence of 13900 a.u.
For `CCACACGCGGTGGCATGCCTTCCTAGGCATGCCACCGCGTGTGGACACTC (5mC at 36)`, the median fluorescence was 6820 a.u.
`CCACCGGTGGTGGCATGCCTTCCTAGGCATGCCACCACCGGTGGACACTC (5mC at 5)` has a median fluorescence of 7280 a.u.
The median fluorescence of `CCACATGTGGTGGCATGCCTTCCTAGGCATGCCACCACATGTGGACACTC` is reported as 8670 a.u.
`CCACACGTGGTGGCATGCCTTCCTAGGCATGCCACCACGTGTGGACACTC (5mC at 32)` has a median fluorescence of 6610 a.u.
The median fluorescence of `CGGACATGGCCGGGCATGTCTCCTGACATGCCCGGCCATGTCCGACACTC (5mC at 36)` is reported as 12800 a.u.

Excerpt of the above (sample 4):
`CCACACGTCGTGGCATGCCTTCCTAGGCATGCCACGACGTGTGGACACTC` has a median fluorescence of 7520 a.u.
`CGGACAGGCCCGGGCATGTCTCCTGACATGCCCGGGCCTGTCCGACACTC (5mC at 38)` has a median fluorescence of 13900 a.u.
